Measured values from different studies.
Numbers after ± are the reported error.
Cell line: SK-OV-3

Compound	test	test system	conditions	how to read	quantity	result
C#C[C@@]1(O)[C@@H](CO)O[C@@H](n2cc(F)c3c(N)ncnc32)[C@@H]1O	SRB		NCI-60 screen		TGI	2.09 µM
C[C@H](Nc1ccc2c(c1)OCCn1cc(N3C(=O)OC[C@H]3C(F)F)nc1-2)C(N)=O	cell growth, CellTiter-Glo		120 h		Hill coefficient GR curve	0.698
CC(=O)O[C@H]1C(=O)[C@@]2(C)[C@H]([C@H](OC(=O)c3ccccc3)[C@]3(O)C[C@H](OC(=O)[C@H](O)[C@@H](NC(=O)c4ccccc4)c4ccccc4)C(C)=C1C3(C)C)[C@]1(OC(C)=O)CO[C@@H]1C[C@@H]2O	cell viability, CCK-8		48 h, single drug		IC50	8290 ± 940 nM
C=CC(=O)N1CCC(COCC(=O)N2CCN(c3nc(-c4cnc(N)nc4C(F)F)nc(N4CCOCC4)n3)CC2)CC1	Akt phosphorylation, inhibitor, in-cell western, item: Akt pSer473				IC50	19.5 nM
Cn1cc(-c2ccc(F)c(C(F)(F)F)c2)nc1C1CCN(c2ncnc3[nH]ncc23)CC1	ATP	2D monolayer culture	1 µM, 4 days	reference: untreated	relative cell number	103%
Cc1n[nH]c2nc(-c3ccc(Cl)cc3)c3c(NC(=O)c4ccccc4)nnc-3n12	SRB		10 µM, NCI60 single-dose screen	reference: untreated	cell growth	108%
COc1cnc2cccc(N3CCc4c(cc(Cn5ccnc5C)cc4-c4cn(C)nc4C(F)(F)F)C3=O)c2c1	cell growth, inhibitor		120 h		EC50	> 30 µM
Clc1ccc(C2(c3ccc(-c4cn[nH]c4)cc3)CCNCC2)cc1	ATP	2D monolayer culture	0.01 µM, 4 days	reference: untreated	relative cell number	105%
CCn1cc(-c2cc(Cn3ccoc3=N)cc3c2CCN([C@@H](C)c2cc(OC)ccn2)C3=O)c(C(F)(F)F)n1	cell growth, inhibitor		120 h		EC50	> 30 µM
Cc1cc(=O)[nH]n1-c1nc(-c2ccc(Cl)cc2)c2c(NC(=O)c3ccccc3)nnc-2[nH]1	SRB		10 µM, NCI60 single-dose screen	reference: untreated	cell growth	108%
O=C1NC(=NCc2cccs2)S/C1=C\c1ccc2ncccc2c1	MTS		NCI60 panel		IC50	> 10000 nM
C[C@H](Nc1ccc2c(c1)OCCn1cc(N3C(=O)OC[C@H]3C(F)F)nc1-2)C(N)=O	resazurin growth rate inhibition		72 h		GR50	> 5 µM
CSc1nc(-c2ccc(Cl)cc2)c2c(NC(=O)c3ccccc3)nnc-2[nH]1	SRB		10 µM, NCI60 single-dose screen	reference: untreated	cell growth	82.6%
Cc1nc(NC(=O)N2CCC[C@H]2C(N)=O)sc1-c1ccnc(C(C)(C)C(F)(F)F)c1	western blot, item: phospho-PKB/Akt Ser473		2 h		IC50	76.5 nM
O=C(Nc1nnc2n3c(Cc4ccccc4)n[nH]c3nc(-c3ccc(Cl)cc3)c1-2)c1ccccc1	SRB		10 µM, NCI60 single-dose screen	reference: untreated	cell growth	103%
Cn1cncc1C1=CN(c2ncnc3[nH]cnc23)CCS1			ovarian cancer		TGI	81.3 µM
CC/C(=N\NC(=O)C(C)Nc1ccccc1)c1ccc(O)c(C)c1O (stereo not drawn)	Western blot, item: TAZ		10 µM, 3 h, 3D gellan gum culture, unit not given	reference: β-actin	protein level	1.66 ± 0.14
Cc1cc(C)n(-c2nc(-c3ccc(Cl)cc3)c3c(NC(=O)c4ccccc4)nnc-3[nH]2)n1	SRB		10 µM, NCI60 single-dose screen	reference: untreated	cell growth	110%
O=C(O)c1ccc(-c2c[nH]c3ncc(-c4ccccc4)cc23)cc1C1CCCC1	ATP	2D monolayer culture	0.01 µM, 4 days	reference: untreated	relative cell number	109%
C=CC(=O)N1CCC(C(=O)N(C)CC(=O)N2CCN(c3nc(-c4cnc(N)nc4C(F)F)nc(N4CCOCC4)n3)CC2)CC1	Akt phosphorylation, inhibitor, in-cell western, item: Akt pSer473		1 h		IC50	85.7 nM
C#C[C@@]1(O)[C@@H](CO)O[C@@H](n2cc(Br)c3c(N)ncnc32)[C@@H]1O	SRB		NCI-60 screen		TGI	0.439 µM
C=CC(=O)N1CCC(COCC(=O)N2CCN(c3nc(-c4cnc(N)nc4C(F)F)nc(N4CCOC[C@@H]4C)n3)CC2)CC1	western blot, item: phospho-PKB/Akt Ser473		2 h		IC50	21.1 nM
O=C(Nc1nnc2n3c(nc(-c4ccc(Cl)cc4)c1-2)SCC3=O)c1ccccc1	SRB		10 µM, NCI60 single-dose screen	reference: untreated	cell growth	94.7%
CCn1c(-c2nonc2N)nc2cncc(CNC3CCNCC3)c21	ATP		1 µM, 4 days, 3D gellan gum culture	reference: untreated	relative cell number	69.4%
C=CC(=O)N1CCC(CN(C)CC(=O)N2CCN(c3nc(-c4cnc(N)nc4C(F)F)nc(N4CCOCC4)n3)CC2)CC1	Akt phosphorylation, inhibitor, in-cell western, item: Akt pSer473		1 h		IC50	38.3 nM
CC/C(=N\NC(=O)NCc1cccc(O)c1)c1ccc(O)c(C)c1O	Western blot		10 µM, 6 h, 3D gellan gum culture, unit not given	reference: DMSO	TAZ band intensity	0.22 ± 0.07
C=CC(=O)N1CCC(CCCC(=O)N2CCN(c3nc(-c4cnc(N)nc4C(F)F)nc(N4CCOCC4)n3)CC2)CC1	Akt phosphorylation, inhibitor, in-cell western, item: Akt pSer473		1 h		IC50	21.5 nM

Excerpt of the above:
Compound	test	test system	conditions	how to read	quantity	result
C[C@H](Nc1ccc2c(c1)OCCn1cc(N3C(=O)OC[C@H]3C(F)F)nc1-2)C(N)=O	resazurin growth rate inhibition		72 h		GR50	> 5 µM
CSc1nc(-c2ccc(Cl)cc2)c2c(NC(=O)c3ccccc3)nnc-2[nH]1	SRB		10 µM, NCI60 single-dose screen	reference: untreated	cell growth	82.6%
